Published values gathered from unrelated publications.
Each numbered part is a random draw from the data of one study; scales do not carry over between parts.

Set 1
Target: Ras GTPase-activating protein-binding protein 1, RRM domain (G3BP1, Homo sapiens, UniProt Q13283)
Chain of UniProt Q13283 (whole entry, looked up): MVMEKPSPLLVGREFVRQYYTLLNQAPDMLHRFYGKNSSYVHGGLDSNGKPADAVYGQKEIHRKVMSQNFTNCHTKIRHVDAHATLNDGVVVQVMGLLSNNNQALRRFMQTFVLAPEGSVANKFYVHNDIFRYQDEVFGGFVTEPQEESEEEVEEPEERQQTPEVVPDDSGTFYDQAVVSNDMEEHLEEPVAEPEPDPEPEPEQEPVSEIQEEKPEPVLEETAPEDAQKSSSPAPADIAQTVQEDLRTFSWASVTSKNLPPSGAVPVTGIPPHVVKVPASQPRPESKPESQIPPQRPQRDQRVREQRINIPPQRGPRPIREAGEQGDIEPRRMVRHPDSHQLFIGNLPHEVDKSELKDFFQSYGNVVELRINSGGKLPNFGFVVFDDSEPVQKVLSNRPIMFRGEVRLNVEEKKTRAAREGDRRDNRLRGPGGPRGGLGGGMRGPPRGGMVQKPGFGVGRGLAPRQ
Technique: RNA Bind-n-Seq
Molecule type: RNA
Sample: in vitro
Concentration: 1 µM
Notes: whole 134-nt RNA, ends assumed
With: 150 mM KCl
Reference: input library
Reading: higher = stronger binding
Constant ends, left off below: GGGAGUUCUACAGUCCGACGAUC … UGGAAUUCUCGGGUGUCAAGG
| Sequence | log2 enrichment |
| --- | --- |
| UGGGAGCUGGAUUUUGUUUAUUUUUUUAGCUCAUUUCCAGGGGUGGGAAUUUUUUUUUAAUAUGUGUCAUGAAUAAAGUUGUUUUUGAAA | 1.69 |
| UGUGCUACACAUCGUAUGUACCGAAUCGGGGUUUUUUUGGGUUUUUUUGGGUUUUUUUGGGGAAAGUAUUAUGUUACGCCGUUCGGAUCU | -0.111 |
| UCCCCAGGGCCUGGCCUACUCAAUCUCUCCCACCUCAUCCUCUGGCAUGGACGCAGUCAGGGAGUCUGCUCCAAGCAGACACUGGUGGUC | -0.253 |
| CCUCAAGUCCUGUGCUACACAUCGUAUGUACCGAAUCGGGGAGGAGGGGAGGAAAGUAUUAUGUUACGCCGUUCGGAUCUGCACUUCCAG | -0.167 |
| UCCUGUGCUACACAUCGUAUGUACCGAAUCAAAUUUUUAAAUUUUUUUAAACCCCCAAAAAAGUAUUAUGUUACGCCGUUCGGAUCUGCA | -0.875 |
| UUUUCUCACGAUGCACCUCCCCCUGGCACUAAGAAAAAGCACUUAUCCAUUGAGCAGCUGAAUGCUCGUCGCAGGAAAGUAUGGCUCAGC | -0.142 |
| UGGCCCUGGUGGCAUGCGGGGAGGAAGAGGUGGCCUCAUGGAUCGUGGUGGUCCCGGUGGAAUGUUCAGAGGUGGCCGUGGUGGAGUCAG | 1.62 |
| CACAGACAACACGCACCCACACAGACACAGAGGGAAGGGGUUGGGAUGGGGACAGGGUGCACAGCGGGGCGGGGUAGGACCCCAGCCCCU | 0.048 |
| CUGUGCUACACAUCGUAUGUACCGAAUCGGAAAAAAAGGGGAAAAAAAGGGGAAAAAAAGGAAAGUAUUAUGUUACGCCGUUCGGAUCUG | 0.042 |

Set 2
Target: PABPC1L2, full length, GST fusion (mouse, UniProt A0ABA7IW68)
Technique: RNAcompete
Molecule type: RNA
Sample: in vitro
Concentration: 20 nM
Notes: 7-mer, probes averaged, single round
Reference: mean of 7-mers
Reading: higher = stronger binding
Target sequence (chain): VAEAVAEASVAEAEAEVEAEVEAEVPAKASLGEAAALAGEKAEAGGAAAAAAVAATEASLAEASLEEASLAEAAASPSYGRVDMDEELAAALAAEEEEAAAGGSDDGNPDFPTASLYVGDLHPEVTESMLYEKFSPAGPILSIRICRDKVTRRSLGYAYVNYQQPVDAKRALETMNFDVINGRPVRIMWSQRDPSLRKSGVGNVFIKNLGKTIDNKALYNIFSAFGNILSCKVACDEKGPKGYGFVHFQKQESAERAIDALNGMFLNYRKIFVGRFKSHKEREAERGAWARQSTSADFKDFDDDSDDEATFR
| Sequence | 7-mer Z-score |
| --- | --- |
| UAAAGGC | 0.314 |
| UAUAGUA | -0.184 |
| AGUUACA | -0.206 |
| CACACGU | -0.32 |
| UAACCGG | -0.144 |
| UACGGAC | 0.0424 |
| UACUCUC | -0.389 |
| CCUUGUG | -0.371 |
| UUCAUUA | -0.199 |
| GGAGAAA | 1.03 |
| GGAGCGA | 0.678 |
| UGCGCGU | -0.238 |
| UCGUAAC | -0.282 |
| CGUAUAA | 0.309 |
| CCCUGUC | -0.289 |
| ACUAGGC | -0.00108 |
| UUGGUUU | -0.36 |
| CGGAUAU | -0.142 |
| CACAGCU | -0.219 |
| UUUCGUA | -0.331 |
| AAGCUUC | -0.19 |
| UUGGCAG | 0.0225 |
| CGCUUUC | -0.382 |
| CGAGCAG | 0.0261 |
| AUUCUGG | -0.135 |

Set 3
Target: Prothrombin, mature alpha-thrombin (F2, Homo sapiens, UniProt P00734)
Technique: aptamer microarray, sandwich
Molecule type: DNA with 2'F-ANA
Sample: in vitro
Concentration: 200 nM
Notes: whole 15-mer aptamer, many near background
With: Cy3 exosite-II aptamer, 400 nM
Reading: higher = stronger binding
Sequence: GGTTGGTGTGGTTGG
| Modification | mean fluorescence intensity [a.u.] |
| --- | --- |
| 2'F-ANA at 7 9 10 | 207 |
| 2'F-ANA at 2 3 5 6 10 12 13 15 | 58.1 |
| 2'F-ANA at 2 3 5 8 9 11 12 14 | 59.1 |
| 2'F-ANA at 2 3 4 6 7 8 11 12 14 15 | 295 |
| 2'F-ANA at 3 5 7 8 9 11 | 132 |
| 2'F-ANA at 2 4 8 11 12 14 | 141 |
| 2'F-ANA at 2 6 8 9 11 13 14 15 | 105 |
| 2'F-ANA at 1 4 5 13 15 | 50.3 |
| 2'F-ANA at 1 3 6 10 11 | 74.1 |
| 2'F-ANA at 1 3 4 5 6 9 12 13 14 15 | 112 |
| 2'F-ANA at 3 5 7 10 13 14 | 85 |
| 2'F-ANA at 1 5 7 9 12 13 14 15 | 46.3 |
| 2'F-ANA at 1 2 6 8 9 11 12 13 14 | 63 |
| 2'F-ANA at 2 3 8 9 11 12 | 847 |
| 2'F-ANA at 1 2 3 7 8 10 12 14 | 57.2 |
| 2'F-ANA at 2 9 11 12 13 14 15 | 148 |
| 2'F-ANA at 1 3 5 7 8 10 11 13 | 59.1 |
| 2'F-ANA at 2 3 4 7 9 10 11 | 264 |
| 2'F-ANA at 2 3 4 7 9 13 14 | 264 |
| 2'F-ANA at 1 8 11 12 14 | 72.2 |
| 2'F-ANA at 3 4 5 6 7 12 13 | 127 |
| 2'F-ANA at 6 8 9 12 15 | 758 |

Set 4
Target: Histone acetyltransferase KAT6A, both winged helices, GST fusion (KAT6A, Homo sapiens, UniProt Q92794, residues 1-181)
Technique: protein binding microarray
Molecule type: double-stranded DNA, one strand shown
Sample: in vitro
Concentration: not given
Notes: 8-mer, flanks averaged, mean of 2 arrays, mostly near background
Reference: not given
Reading: higher = stronger binding
Target sequence (chain): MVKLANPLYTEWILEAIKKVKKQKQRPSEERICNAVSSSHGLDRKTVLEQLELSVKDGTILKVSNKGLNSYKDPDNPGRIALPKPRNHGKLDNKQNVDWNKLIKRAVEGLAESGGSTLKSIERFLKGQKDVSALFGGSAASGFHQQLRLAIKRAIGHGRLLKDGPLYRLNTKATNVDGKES
| Sequence | E-score |
| --- | --- |
| AATATATA | 0.0351 |
| GCCAGAAC | -0.098 |
| CCTCGCCG | 0.148 |
| GACGAATA | -0.0101 |
| GGGCCGAC | 0.136 |
| AGTTGACG | 0.057 |
| CGGAAATA | 0.115 |
| GGAGTGGA | -0.112 |
| GGCAGAAA | 0.0588 |
| ACGATGGG | -0.136 |
| GAAACCTA | -0.0401 |
| AGCAGAAG | -0.0538 |
| GTAGGTTA | -0.00483 |
| CCCTTGTA | -0.167 |
| CTAATAAA | -0.0632 |
| ATTCAGAG | -0.113 |
| ATTGAAAT | -0.0425 |

A few entries again (set 2):
| Sequence | 7-mer Z-score |
| --- | --- |
| CGGAUAU | -0.142 |
| CGUAUAA | 0.309 |
| UUGGCAG | 0.0225 |
| CACAGCU | -0.219 |
| UUCAUUA | -0.199 |
| CCUUGUG | -0.371 |
| AGUUACA | -0.206 |
| CGAGCAG | 0.0261 |
